Experimental data of several laboratories.
Each numbered part is a random draw from the data of one study; scales do not carry over between parts. Substitutions count along the parent as printed.
Sequence of UniProt Q96L34 (whole entry, looked up): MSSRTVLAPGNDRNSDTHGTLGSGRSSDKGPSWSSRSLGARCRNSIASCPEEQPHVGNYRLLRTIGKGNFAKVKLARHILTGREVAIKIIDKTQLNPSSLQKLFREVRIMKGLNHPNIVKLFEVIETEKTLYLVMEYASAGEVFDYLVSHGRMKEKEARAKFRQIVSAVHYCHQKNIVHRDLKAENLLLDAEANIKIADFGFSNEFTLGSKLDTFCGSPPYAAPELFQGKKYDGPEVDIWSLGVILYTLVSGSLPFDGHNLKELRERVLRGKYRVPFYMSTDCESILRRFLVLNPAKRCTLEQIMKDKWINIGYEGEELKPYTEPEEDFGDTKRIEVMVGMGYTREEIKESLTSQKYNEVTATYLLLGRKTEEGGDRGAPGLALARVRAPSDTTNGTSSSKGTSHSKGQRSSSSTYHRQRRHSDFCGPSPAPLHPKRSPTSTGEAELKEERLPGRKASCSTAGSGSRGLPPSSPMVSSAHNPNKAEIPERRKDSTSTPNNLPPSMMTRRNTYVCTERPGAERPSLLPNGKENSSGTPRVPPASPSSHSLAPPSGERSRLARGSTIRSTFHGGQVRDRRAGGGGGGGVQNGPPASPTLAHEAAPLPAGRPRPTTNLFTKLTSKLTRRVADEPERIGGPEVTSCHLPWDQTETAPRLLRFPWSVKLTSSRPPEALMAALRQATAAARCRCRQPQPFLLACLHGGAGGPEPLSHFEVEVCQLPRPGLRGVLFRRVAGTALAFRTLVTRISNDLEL
Sequence of UniProt P50750 (whole entry, looked up): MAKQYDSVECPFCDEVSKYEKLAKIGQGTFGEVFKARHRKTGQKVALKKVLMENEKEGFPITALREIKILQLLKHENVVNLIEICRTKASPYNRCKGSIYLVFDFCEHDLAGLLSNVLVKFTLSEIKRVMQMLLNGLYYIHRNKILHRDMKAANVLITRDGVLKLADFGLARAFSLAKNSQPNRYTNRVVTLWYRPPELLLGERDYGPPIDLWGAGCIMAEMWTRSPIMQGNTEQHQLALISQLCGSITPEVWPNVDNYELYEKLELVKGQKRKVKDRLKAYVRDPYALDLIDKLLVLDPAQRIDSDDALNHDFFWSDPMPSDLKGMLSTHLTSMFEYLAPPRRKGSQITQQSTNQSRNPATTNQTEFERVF
Sequence of UniProt P42681 (whole entry, looked up): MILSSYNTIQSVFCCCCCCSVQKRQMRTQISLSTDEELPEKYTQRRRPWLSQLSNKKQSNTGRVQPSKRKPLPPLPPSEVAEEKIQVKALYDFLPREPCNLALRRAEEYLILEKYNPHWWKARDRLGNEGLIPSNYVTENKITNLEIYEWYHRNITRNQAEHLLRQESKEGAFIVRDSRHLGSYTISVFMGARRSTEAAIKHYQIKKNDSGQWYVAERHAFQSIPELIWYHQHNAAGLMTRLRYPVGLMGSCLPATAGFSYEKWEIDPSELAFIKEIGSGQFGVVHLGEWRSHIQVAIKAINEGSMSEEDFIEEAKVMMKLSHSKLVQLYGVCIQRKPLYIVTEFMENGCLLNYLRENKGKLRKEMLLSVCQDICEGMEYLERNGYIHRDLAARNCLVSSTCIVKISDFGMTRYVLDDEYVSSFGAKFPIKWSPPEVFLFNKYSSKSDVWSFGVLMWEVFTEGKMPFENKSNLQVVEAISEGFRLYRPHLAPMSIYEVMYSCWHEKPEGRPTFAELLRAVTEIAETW
Sequence of UniProt Q9HAZ1 (whole entry, looked up): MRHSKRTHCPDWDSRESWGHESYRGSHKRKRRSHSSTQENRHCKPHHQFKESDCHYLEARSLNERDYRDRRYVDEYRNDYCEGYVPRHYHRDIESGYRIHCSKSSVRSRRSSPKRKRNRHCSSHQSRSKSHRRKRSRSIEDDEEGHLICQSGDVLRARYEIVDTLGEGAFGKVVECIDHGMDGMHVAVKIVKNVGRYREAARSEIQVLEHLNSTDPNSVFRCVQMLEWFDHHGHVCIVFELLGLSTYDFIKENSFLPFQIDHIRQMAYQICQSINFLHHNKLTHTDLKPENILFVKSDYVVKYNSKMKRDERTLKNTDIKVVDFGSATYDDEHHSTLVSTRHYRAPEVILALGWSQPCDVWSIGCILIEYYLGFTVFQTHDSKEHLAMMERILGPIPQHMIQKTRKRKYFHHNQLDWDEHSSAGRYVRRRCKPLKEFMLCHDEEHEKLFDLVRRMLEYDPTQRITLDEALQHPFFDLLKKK
Sequence of UniProt Q00535 (whole entry, looked up): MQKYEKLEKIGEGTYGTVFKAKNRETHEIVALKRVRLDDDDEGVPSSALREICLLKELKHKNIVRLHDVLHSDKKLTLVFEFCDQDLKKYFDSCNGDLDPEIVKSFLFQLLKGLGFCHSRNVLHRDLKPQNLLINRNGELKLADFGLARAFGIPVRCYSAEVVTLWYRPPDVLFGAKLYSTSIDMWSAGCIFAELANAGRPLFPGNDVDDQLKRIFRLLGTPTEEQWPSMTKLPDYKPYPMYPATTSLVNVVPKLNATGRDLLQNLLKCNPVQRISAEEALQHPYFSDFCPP
Sequence of UniProt Q8N568 (whole entry, looked up): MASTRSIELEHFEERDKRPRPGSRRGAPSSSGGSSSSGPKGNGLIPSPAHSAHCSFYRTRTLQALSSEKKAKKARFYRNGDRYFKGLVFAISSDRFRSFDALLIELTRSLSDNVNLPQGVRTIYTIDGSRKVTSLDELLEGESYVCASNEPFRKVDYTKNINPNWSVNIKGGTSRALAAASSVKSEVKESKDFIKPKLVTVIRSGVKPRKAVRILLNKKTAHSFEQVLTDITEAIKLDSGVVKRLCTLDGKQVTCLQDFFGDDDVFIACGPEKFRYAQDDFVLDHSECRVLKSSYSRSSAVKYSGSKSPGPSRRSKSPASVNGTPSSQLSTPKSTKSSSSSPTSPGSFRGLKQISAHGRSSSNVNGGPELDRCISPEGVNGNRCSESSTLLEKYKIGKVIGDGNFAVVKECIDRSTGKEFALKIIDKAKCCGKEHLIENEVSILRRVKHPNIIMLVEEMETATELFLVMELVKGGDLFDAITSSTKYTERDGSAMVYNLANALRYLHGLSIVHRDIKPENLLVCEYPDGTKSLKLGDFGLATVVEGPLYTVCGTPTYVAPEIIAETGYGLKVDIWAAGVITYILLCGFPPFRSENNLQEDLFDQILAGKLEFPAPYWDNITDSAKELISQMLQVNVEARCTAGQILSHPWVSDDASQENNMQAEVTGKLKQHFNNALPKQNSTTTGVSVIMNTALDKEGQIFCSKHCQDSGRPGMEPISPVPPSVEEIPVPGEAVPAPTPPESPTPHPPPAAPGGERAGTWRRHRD
Sequence of UniProt P11802 (whole entry, looked up): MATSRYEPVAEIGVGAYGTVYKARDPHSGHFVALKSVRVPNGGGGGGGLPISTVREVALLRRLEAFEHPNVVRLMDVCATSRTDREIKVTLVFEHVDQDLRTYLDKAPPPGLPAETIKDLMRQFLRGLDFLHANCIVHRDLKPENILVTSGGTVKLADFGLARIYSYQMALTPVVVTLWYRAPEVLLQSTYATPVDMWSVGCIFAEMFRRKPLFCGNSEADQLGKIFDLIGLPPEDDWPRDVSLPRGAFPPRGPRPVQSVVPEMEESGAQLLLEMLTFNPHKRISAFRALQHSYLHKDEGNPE
Sequence of UniProt O75676 (whole entry, looked up): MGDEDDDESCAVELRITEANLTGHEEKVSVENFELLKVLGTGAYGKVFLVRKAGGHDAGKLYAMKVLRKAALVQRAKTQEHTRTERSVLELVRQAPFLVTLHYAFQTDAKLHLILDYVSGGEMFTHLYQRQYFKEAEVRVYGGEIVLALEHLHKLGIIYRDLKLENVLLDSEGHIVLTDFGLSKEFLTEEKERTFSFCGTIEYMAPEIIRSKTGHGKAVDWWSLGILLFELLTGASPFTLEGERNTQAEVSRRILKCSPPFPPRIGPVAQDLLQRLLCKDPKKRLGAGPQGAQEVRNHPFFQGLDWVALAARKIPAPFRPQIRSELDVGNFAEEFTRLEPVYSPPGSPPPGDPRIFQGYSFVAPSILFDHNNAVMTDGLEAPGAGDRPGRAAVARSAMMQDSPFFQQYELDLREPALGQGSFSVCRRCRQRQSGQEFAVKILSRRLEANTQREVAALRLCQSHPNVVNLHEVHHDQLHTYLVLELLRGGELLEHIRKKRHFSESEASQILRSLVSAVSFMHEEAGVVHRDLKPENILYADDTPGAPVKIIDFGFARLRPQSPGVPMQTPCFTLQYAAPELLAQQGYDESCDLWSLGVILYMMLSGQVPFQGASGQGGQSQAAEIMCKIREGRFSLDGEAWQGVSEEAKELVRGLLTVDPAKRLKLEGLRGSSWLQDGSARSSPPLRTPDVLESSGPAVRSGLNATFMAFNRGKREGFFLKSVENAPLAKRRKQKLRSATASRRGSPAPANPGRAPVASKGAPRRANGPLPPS
Sequence of UniProt P32298 (whole entry, looked up): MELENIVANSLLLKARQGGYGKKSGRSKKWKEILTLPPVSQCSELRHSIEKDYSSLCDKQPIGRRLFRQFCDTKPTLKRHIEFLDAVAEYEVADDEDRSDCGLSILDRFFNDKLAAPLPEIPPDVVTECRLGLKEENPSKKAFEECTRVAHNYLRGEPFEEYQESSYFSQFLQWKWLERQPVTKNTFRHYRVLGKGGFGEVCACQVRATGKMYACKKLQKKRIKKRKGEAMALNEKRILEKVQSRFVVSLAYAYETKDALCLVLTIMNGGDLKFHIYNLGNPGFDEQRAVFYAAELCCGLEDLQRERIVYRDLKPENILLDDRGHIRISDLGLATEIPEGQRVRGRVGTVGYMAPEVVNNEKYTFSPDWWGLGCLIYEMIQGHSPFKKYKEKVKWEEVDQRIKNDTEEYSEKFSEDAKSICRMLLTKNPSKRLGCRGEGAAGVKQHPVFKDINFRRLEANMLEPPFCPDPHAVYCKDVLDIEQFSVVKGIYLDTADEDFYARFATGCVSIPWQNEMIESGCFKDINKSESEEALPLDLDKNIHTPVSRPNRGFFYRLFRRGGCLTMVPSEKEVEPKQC

Block 1
SMILES: CCN(CC)CCNC(=O)c1c(C)[nH]c(/C=C2\C(=O)Nc3ccc(Cl)cc32)c1C
Observed: enzyme activity
Mode: inhibitor
Concentration: 0.5 µM
Baseline: control
| target | remaining activity |
| --- | --- |
| Tyrosine-protein kinase TXK (TXK, Homo sapiens, UniProt P42681) | 79.5% |
| G protein-coupled receptor kinase 4 (GRK4, Homo sapiens, UniProt P32298) | 80.8% |
| Serine/threonine-protein kinase DCLK2 (DCLK2, Homo sapiens, UniProt Q8N568) | 82.8% |
| Hepatocyte growth factor receptor (MET, Homo sapiens, UniProt P08581) | 77% |
| Serine/threonine-protein kinase MARK2 (MARK2, Homo sapiens, UniProt Q7KZI7) | 9.74% |
| Cyclin-dependent kinase 9, with cyclin K (CDK9, Homo sapiens, UniProt P50750) | 40.1% |
| Serine/threonine-protein kinase PAK 3 (PAK3, Homo sapiens, UniProt O75914) | 93.8% |
| MAP/microtubule affinity-regulating kinase 4 (MARK4, Homo sapiens, UniProt Q96L34) | 7.19% |
| Calcium/calmodulin-dependent protein kinase type 1B (PNCK, Homo sapiens, UniProt Q6P2M8) | 70.5% |
| Calcium/calmodulin-dependent protein kinase type IV (CAMK4, Homo sapiens, UniProt Q16566) | 95% |
| Dual specificity protein kinase CLK4 (CLK4, Homo sapiens, UniProt Q9HAZ1) | 16.8% |
| Ribosomal protein S6 kinase alpha-4 (RPS6KA4, Homo sapiens, UniProt O75676) | 59% |

Block 2
Target: RNA binding protein fox-1 homolog 2, RRM domain, GST-SBP tag (RBFOX2, Homo sapiens, UniProt O43251-10, residues 100-194)
Technique: RNA Bind-n-Seq
Molecule type: RNA
Matrix: in vitro
Concentration: 365 nM
Setting: natural RNA segment, single round, ends assumed
Baseline: no-protein control
Reading: higher = stronger binding
Target sequence (chain): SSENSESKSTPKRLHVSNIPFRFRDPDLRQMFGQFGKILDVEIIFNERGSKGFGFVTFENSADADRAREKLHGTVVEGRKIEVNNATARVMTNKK
| Oligonucleotide | RBNS enrichment (R) |
| --- | --- |
| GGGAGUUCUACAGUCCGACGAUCAUAAGGAAAACAAAGCGACGCCUAUUUUGUAUAAAGUUUCCGACUCCGUCUUGGCCAUGUCUAGUAAUUGCUAUGUGUUGGGAGAAACUUUGUGAAUGCACCAUUUUGAUUGGAAUUCUCGGGUGCCAA | 2.58 |
| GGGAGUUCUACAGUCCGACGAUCAAGAAGGUGGGAGGAUGUGAAUUGUUAGUUUCUGAGUUUUACCAAAUAAAGUAGAAUAUAAGAAGAAGGUACAUUUGUUUUUGCUUUUAUUCACCCUGCCCAGCUAUCCAUGGAAUUCUCGGGUGCCAA | 0.449 |
| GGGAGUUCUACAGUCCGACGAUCGCAGAGUUCUAGGUACACCACCCGUCUUAAUAUGGGAGCUCCCAUUCUGUAUCAAAAUGGACUGUUCAUAUCAGAGCUGAGAACUAAAGCACUUCGUUCAUUAUCAGAAAUGGAAUUCUCGGGUGCCAA | 0.425 |
| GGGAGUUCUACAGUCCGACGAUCCGGUACCGUUUACACAGUCACCUCAGACACACCAUUUCACCUCCCUUGCCAAGCUGUUAGCCUUAGAGUGAUUGCAGUGAACACUGUUUACACACCGUGAAUCCAUUCCCUGGAAUUCUCGGGUGCCAA | 0.324 |
| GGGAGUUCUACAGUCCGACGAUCGGCUGGAGAGAUGGCUCAGUGGUUAAAAGCACUGGCUGCUCUUGGUCAGGACACUAGUUCAGUUCCCAGUACCCACAUGGUGGCUCACAACCUUCUGUGACUACAGUUCCUGGAAUUCUCGGGUGCCAA | 0.224 |
| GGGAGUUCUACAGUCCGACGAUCUUUCAUUUUACAGUUACUUUUCCUUGCAUACAAACAAGCAUAUAAAAUGGCAACAAACUGCACAUGAUUUCACAAAUAUUAAAAAGUCUUUUAAAAAGUAUUGCCAAACAUGGAAUUCUCGGGUGCCAA | 1.52 |
| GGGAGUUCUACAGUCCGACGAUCCACAAGGGCCAGGCUCCAUUCUCCCUCCCUUUCCACCAGUGCCACAGCCUCGUCUGGAAAAAGGACCAGGGGUCCCGGAGGAACCCAUUUGUGCUCUGCUUGGACAGCAGUGGAAUUCUCGGGUGCCAA | 0.43 |
| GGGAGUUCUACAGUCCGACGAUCGUGUGUGGCUGUGGUUGUUUAUAAAUGAGACUAAGUCUGAUUUGCAUAAGGGCUUUCAAAAAUUAAGUCUGUCCAGUAGAGUGAUUUUGCUUUCAUUAUUACCAAGUCAAUGGAAUUCUCGGGUGCCAA | 0.384 |

Block 3
Target: CREBRF, bZIP domain (human)
Technique: DHFR protein complementation
Matrix: yeast
Setting: single substitutions, most at no-binding floor
Baseline: wild-type JUN-FOS pair
Reading: higher = stronger binding
Starting sequence: JUN, bZIP domain (human); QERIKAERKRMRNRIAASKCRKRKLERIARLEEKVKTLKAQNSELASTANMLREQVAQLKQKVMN; partner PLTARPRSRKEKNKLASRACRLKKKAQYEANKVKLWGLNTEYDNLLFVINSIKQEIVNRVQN
| Change | binding fitness |
| --- | --- |
| A46V | -1.36 natural log |
| L59F | -1.46 natural log |
| V35C | -1.58 natural log |
| Q55N | -1.47 natural log |
| L52Q | -1.5 natural log |
| E33A | -1.53 natural log |
| L52R | -1.49 natural log |
| A49M | -1.39 natural log |

Block 4
SMILES: CCc1ccccc1C(=O)Nc1n[nH]c2c(C)c(F)c(C3C(C#N)=C(C)N(C)C(C)=C3C#N)cc12
Observed: cell-free assay
Technique: competition with immobilised ligand
Concentration: 1 µM
| target | remaining binding [%] |
| --- | --- |
| Cyclin-dependent kinase 4 (CDK4, Homo sapiens, UniProt P11802) | 100 |
| Insulin-like growth factor 1 receptor (IGF1R, Homo sapiens, UniProt P08069) | 87 |
| Cyclin-dependent kinase 5 (CDK5, Homo sapiens, UniProt Q00535) | 89 |
| Tyrosine-protein kinase JAK1, JH2 (JAK1, Homo sapiens, UniProt P23458) | 91 |
| Casein kinase II subunit alpha (CSNK2A1, Homo sapiens, UniProt P68400) | 100 |
| Receptor-type tyrosine-protein kinase FLT3 (FLT3, Homo sapiens, UniProt P36888, N841I) | 0 |
